Published values gathered from unrelated publications.
Numbers after ± are the reported error. In brackets after ≈: the same amount, converted by molar mass.

O=C1CCN(Cc2ccccc2)CC1C(C[N+](=O)[O-])c1ccccc1 (stereo not shown)  tail flick response (tail immersion test; BALB/c mice; ip, 50 mg/kg, 0.25 h): 21.6%
Oc1ccc2nc1CNCCNCCNC2  log beta MHL (potentiometric titration; 298 K, I 0.15 M NaCl, together with: Cu2+): 29
O=C(CCCCCCC(=O)NO)NO  IC50 (Lucilia cuprina; pupation; LS strain, larvae on impregnated cotton wool; 216 h): 550 µg
CC(=O)OC[C@H]1O[C@@H](Sc2sc(C(=O)c3ccc(Br)cc3)c(N)c2-c2nc3ccccc3s2)[C@H](OC(C)=O)[C@@H](OC(C)=O)[C@H]1OC(C)=O  growth (SF-539; SRB; 10 µM, 48 h; reference: untreated): 95.2%
COc1cc(C(=O)c2[nH]c(N)nc2-c2cccs2)cc(OC)c1OC  inhibition (tubulin goat; taxol-induced tubulin polymerization; 30 µM, together with: taxol 10 µM): 33 ± 9%
COc1ccc([C@@H]2CC(=O)c3c(O)cc(O[C@@H]4O[C@H](CO[C@@H]5O[C@@H](C)[C@H](O)[C@@H](O)[C@H]5O)[C@@H](O)[C@H](O)[C@H]4O)cc3O2)cc1O  viability (A549; cell growth or viability, MTS; 150 µg/mL, 48 h): 47.2%
COc1cc(CCC(C)=O)ccc1O  IC50 (mAb 5-3H1; antibody binding, indirect competitive ELISA; together with: coating antigen 1-OVA): > 4 µg/mL
O=C(CCCCCCCC(=O)NO)NO  IC50 (Lucilia cuprina; pupation; LS strain, larvae on impregnated cotton wool; 216 h): > 1000 µg
CCCCC/C=C/C(=O)CCc1ccc(O)c(OC)c1  IC50 (mAb 5-3H1; antibody binding, indirect competitive ELISA; together with: coating antigen 4-OVA): 0.128 µg/mL (≈ 0.463 µM)
Cc1cc(Cl)ccc1OCCCC(=O)NO  IC50 (Lucilia cuprina; larval weight gain; LS strain, larvae on impregnated cotton wool; 24 h): > 1000 µg
CC(=O)[O-].O.O.O.O.[Ni+2].[O-]c1ccc(Br)cc1C=NCCN1CCOCC1  inhibition zone diameter (Chromobacterium violaceum; 20 µL of 100 µM per disc): 16 mm
Cc1sc2ncn(CC(=O)N3CCCC3)c(=O)c2c1-c1cccc(Br)c1  amplitude 1 area (NMDA receptor, mouse; single-channel current, outside-out patch; cortical neurons; concentration not given, together with: Ca2+ 1.25 mM): 71%
CC(C)(C)OC(=O)N[C@@H](CCCCCC(=O)NO)C(=O)NC1CCCC1  IC50 (Lucilia cuprina; larval weight gain; LS strain, larvae on impregnated cotton wool; 24 h): 101 µg

Some of these lines once more:
CCCCC/C=C/C(=O)CCc1ccc(O)c(OC)c1  IC50 (mAb 5-3H1; antibody binding, indirect competitive ELISA; together with: coating antigen 4-OVA): 0.128 µg/mL (≈ 0.463 µM)
